# Earlier results as cited in several papers.
# Protocols differ between the studies behind these lines. Several values in a cell are separate wells, animals, samples, runs or records. ± gives the spread as reported. [ ]: non-standard residue; d: D form.
# Grin2b with GluN1a: Glutamate receptor ionotropic, NMDA 2B, with GluN1a (Grin2b, Rattus norvegicus, UniProt Q00960)
# Equilibrative nucleoside transporter 2: Equilibrative nucleoside transporter 2 (Homo sapiens, UniProt Q14542)
# Sequence of UniProt P30536 (whole entry, looked up): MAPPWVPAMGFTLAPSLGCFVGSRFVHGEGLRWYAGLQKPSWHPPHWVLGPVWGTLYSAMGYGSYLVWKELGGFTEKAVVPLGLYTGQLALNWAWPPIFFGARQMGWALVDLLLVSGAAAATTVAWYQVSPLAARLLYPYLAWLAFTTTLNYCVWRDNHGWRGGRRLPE
# Sequence of UniProt Q14542 (whole entry, looked up): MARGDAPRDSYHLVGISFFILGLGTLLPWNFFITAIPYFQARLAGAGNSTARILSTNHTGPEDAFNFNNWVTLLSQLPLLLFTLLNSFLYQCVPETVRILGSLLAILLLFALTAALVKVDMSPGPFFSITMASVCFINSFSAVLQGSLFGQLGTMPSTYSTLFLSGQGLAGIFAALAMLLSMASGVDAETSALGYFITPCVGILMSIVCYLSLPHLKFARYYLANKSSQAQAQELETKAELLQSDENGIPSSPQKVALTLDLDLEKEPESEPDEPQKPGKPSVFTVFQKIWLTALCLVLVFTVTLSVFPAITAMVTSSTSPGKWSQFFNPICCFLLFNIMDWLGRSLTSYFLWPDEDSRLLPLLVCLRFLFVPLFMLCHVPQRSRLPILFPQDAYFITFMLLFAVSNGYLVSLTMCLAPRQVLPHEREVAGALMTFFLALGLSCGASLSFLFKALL
# Sequence of UniProt O35627 (whole entry, unmodified, looked up): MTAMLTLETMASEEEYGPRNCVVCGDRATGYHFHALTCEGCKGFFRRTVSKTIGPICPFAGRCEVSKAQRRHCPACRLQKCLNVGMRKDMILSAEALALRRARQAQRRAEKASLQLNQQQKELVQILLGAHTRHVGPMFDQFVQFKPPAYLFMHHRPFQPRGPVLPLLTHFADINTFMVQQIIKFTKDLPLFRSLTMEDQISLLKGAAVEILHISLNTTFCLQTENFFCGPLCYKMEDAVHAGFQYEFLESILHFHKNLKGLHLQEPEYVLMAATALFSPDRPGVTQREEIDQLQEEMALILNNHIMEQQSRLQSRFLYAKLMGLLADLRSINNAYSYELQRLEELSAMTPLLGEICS
# Sequence of UniProt Q13126 (whole entry, looked up): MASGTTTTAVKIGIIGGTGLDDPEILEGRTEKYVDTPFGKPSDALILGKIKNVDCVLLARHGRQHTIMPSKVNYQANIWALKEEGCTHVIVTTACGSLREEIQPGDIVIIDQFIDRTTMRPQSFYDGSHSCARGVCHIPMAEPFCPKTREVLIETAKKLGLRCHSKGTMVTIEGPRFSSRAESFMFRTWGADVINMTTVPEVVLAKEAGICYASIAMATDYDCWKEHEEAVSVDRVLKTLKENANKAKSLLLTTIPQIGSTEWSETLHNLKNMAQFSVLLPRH
# Sequence of UniProt Q01827 (whole entry, looked up): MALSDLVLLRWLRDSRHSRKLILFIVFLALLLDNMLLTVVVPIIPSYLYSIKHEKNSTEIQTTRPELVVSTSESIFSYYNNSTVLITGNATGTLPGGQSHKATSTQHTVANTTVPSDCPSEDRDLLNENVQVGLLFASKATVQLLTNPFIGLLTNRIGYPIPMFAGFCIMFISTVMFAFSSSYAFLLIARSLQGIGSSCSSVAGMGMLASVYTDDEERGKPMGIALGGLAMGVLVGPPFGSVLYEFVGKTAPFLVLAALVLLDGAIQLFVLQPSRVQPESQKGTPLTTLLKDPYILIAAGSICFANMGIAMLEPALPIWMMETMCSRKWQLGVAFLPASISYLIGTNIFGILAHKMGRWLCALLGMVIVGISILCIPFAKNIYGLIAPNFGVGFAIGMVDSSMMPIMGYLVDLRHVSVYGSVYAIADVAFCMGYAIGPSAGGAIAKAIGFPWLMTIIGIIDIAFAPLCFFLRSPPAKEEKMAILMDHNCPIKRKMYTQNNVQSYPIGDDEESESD
# Sequence of UniProt P42264 (whole entry, looked up): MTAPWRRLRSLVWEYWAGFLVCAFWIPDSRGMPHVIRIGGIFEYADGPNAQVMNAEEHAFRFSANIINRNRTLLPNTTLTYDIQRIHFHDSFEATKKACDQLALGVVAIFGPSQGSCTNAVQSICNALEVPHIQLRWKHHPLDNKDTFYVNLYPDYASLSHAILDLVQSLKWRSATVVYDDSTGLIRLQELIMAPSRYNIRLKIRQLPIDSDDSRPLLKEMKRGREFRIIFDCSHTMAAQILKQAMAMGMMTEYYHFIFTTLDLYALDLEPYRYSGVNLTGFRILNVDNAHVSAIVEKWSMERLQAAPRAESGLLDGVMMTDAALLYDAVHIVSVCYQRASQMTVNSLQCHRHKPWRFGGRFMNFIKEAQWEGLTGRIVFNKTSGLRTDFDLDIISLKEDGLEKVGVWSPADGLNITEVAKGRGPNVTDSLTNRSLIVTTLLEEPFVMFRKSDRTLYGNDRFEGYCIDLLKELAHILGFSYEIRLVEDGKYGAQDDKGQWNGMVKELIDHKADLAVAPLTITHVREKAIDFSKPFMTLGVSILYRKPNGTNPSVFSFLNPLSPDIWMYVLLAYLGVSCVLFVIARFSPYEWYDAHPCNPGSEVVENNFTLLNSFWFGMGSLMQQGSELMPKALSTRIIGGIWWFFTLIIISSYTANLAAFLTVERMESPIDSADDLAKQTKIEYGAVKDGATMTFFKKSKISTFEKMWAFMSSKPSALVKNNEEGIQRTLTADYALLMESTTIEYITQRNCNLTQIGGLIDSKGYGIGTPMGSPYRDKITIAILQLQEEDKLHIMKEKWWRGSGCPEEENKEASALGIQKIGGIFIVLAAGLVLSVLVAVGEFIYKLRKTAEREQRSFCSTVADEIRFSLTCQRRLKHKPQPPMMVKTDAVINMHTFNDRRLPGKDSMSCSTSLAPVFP
# Sequence of UniProt P00367 (whole entry, looked up): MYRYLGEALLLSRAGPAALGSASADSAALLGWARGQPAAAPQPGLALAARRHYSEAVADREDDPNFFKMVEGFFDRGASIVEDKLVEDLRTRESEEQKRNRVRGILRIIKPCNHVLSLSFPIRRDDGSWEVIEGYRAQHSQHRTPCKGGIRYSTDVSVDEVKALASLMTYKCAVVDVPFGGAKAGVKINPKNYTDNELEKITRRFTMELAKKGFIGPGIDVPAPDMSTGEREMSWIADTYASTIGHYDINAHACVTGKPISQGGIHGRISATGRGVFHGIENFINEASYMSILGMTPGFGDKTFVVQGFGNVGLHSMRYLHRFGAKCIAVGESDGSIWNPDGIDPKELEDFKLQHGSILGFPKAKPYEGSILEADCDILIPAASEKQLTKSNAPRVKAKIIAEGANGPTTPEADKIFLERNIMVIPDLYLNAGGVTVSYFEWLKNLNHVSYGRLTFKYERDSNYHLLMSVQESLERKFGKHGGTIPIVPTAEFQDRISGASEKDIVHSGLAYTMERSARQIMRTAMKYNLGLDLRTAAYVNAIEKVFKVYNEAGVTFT
# Sequence of UniProt P9WHE9 (whole entry, looked up): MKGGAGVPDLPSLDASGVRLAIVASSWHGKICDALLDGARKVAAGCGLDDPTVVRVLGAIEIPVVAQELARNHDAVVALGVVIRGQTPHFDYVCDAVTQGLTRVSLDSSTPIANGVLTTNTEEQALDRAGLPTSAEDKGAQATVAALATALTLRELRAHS
Molecule,target or system,assay,test system,conditions,measurement,result
Nc1ncnc2c(CN3C[C@H](CSc4ccc(Cl)cc4)[C@@H](O)C3)c[nH]c12,"MTAP (Homo sapiens, UniProt Q13126)",inhibitor,,,Ki,1e-05 µM
CS(=O)(=O)c1ccc(CSc2ncnc3c2ncn3C2CC(CO)C(O)C2O)cc1 (stereo not drawn),adenosine kinase (Toxoplasma gondii),,,apparent Ki equals apparent Km,Ki,74 ± 7.8 µM
CNC(=O)[C@@]12C[C@@H]1[C@@H](n1cnc3c(NCc4cccc(Cl)c4)nc(Cl)nc31)[C@H](O)[C@@H]2O,"ADORA2A (Homo sapiens, UniProt P29274)",binding,HEK293 expressing target,,Ki,2.3 ± 0.1 µM
O=P(O)(O)O[C@@H]1[C@H](O)[C@H](O)[C@@H](OP(=O)(O)O)[C@H](OP(=O)(O)O)[C@H]1O,IP3R1 N-terminal domain residues 1-604,"binding, FP competition",,37 °C,Kd,0.49 ± 0.04 µM
Cc1ccccc1-c1cc(N2CCN(C)CC2)ncc1N(C)C(=O)C(C)(C)c1cc(C(F)(F)F)cc(C(F)(F)F)c1,,,"healthy volunteers, plasma","oral, dose not given, netupitant-palonosetron combination, with: oral contraceptives",Vz/F,2760 L
Nc1nc2c(nc(Sc3ccc(Cl)cc3)n2C2OC3COP(O)(=S)OC3C2O)c(=O)[nH]1 (stereo not drawn),PDE4D,"cyclic nucleotide hydrolysis, substrate or inhibitor, isothermal titration calorimetry",,,Km or Ki,137 µM
CNC(=O)[C@@]12C[C@@H]1[C@@H](n1cnc3c(NCc4cccc(I)c4)nc(Cl)nc31)[C@H](O)[C@@H]2O,"ADORA1 (Homo sapiens, UniProt P30542)",binding,,,Ki,0.136 ± 0.022 µM
C=CC1=C(C)c2cc3[nH]c(cc4nc(cc5[nH]c(cc1n2)c(C)c5CCC(=O)O)C(CCC(=O)O)=C4C)c(C)c3C=C,TSPO,,,with: [3H]Ro5-4864,Ki,2.14 µM
O=C1c2cccc3c2[C@H](CCC3)CN1[C@@H]1CN2CCC1CC2,,,"healthy volunteers, plasma","oral, dose not given, netupitant-palonosetron combination, with: oral contraceptives",Vz/F,842 L
O=C(O)[C@H]1NCCN(Cc2ccc3c(ccc4ccccc43)c2)[C@H]1C(=O)O,Grin2b with GluN1a,"ion current, antagonist","Xenopus oocytes expressing GluN1/GluN2B, rat",,Ki,10.3 ± 1.9 µM
CC1CN(c2ccc3ccccc3n2)CCN1CCCCN1C(=O)CCCC1=O (stereo not drawn),SERT (human),binding,human tissue,with: [3H]5-HT,Ki,0.05 µM
O=C(O)/C(=C/c1c(C(=O)O)[nH]c2cc(Cl)cc(Cl)c12)c1ccccc1,glycine binding site rat,[3H]glycine binding,rat brain membranes,,Ki,0.0109 µM
O=C(O)c1ccc(/C=C2\SC(=S)N(c3cccc(C(F)(F)F)c3)C2=O)cc1,"CFTR (Homo sapiens, UniProt P13569)",channel function,permeabilized cells,,Ki,0.2 to 0.3 µM
O=c1[nH]c(=O)c2[nH]c(=O)c(=O)n(C[C@H](O)[C@H](O)[C@H](O)CO)c2[nH]1,"ribH (Mycobacterium tuberculosis, UniProt P9WHE9)",inhibitor,,pH 7.0,Ki,1.4 ± 0.1 µM
CC[C@H](C)[C@H](NC(=O)[C@H](CCCCN)NC(=O)[C@H](Cc1c[nH]cn1)NC(=O)[C@@H](N)CCCNC(=N)N)C(=O)N[C@@H](CC(C)C)C(=O)N[C@@H](Cc1c[nH]cn1)C(=O)N[C@@H](CCCNC(=N)N)C(=O)N[C@@H](CC(C)C)C(=O)N[C@@H](CC(C)C)C(=O)N[C@@H](CCC(N)=O)C(=O)N[C@@H](CCC(=O)O)C(=O)NCC(=O)N[C@@H](CO)C(=O)O,"Nuclear receptor subfamily 1 group I member 3, with RXR (Mus musculus, UniProt O35627)","binding, isothermal titration calorimetry",,"pH 7.2, 25°C",ΔH,-10 ± 0.4 kcal/mol
c1ccc(CCC2CCN(CCc3ccccc3)CC2)cc1,"Synaptic vesicular amine transporter, tetrabenazine binding site (Slc18a2, Rattus norvegicus, UniProt Q01827)",binding,,with: [3H]dihydrotetrabenazine,Ki,1.87 ± 0.25 µM
OCC1CC(n2cnc3c(SCc4c(F)cccc4Cl)ncnc32)C(O)C1O (stereo not drawn),adenosine kinase (Toxoplasma gondii),,,apparent Ki equals apparent Km,Ki,31 ± 4.2 µM
C[C@@H]1CCO[C@H]2Cn3cc(C(=O)NCc4ccc(F)cc4F)c(=O)c(O)c3C(=O)N12,"SLC47A1 (Homo sapiens, UniProt Q96FL8)",inhibitor,,geometric mean of reported,Ki,6.42 µM
COC(=O)c1ccc(CSc2ncnc3c2ncn3C2CC(CO)C(O)C2O)cc1 (stereo not drawn),adenosine kinase (Toxoplasma gondii),,,apparent Ki equals apparent Km,Ki,41 ± 3.2 µM
"Ac-W[dPhe(4-I)]RW-NH2 (N-acetyl, D-4-iodo-Phe2, C-amide; dPhe(4-I) = N[C@H](Cc1ccc(I)cc1)C(=O)O)",mouse MC4R,"antagonist, Schild analysis",HEK293,,Ki,0.0148 µM
"C[C@@]12CC[C@H]3c4ccc(O)cc4CC[C@@H]3[C@H]1CC[C@H]2O (single isomer, unassigned)",HT-22,cell protection,,with: glutamate 10 mM,EC50,0.936 µM
COc1ccc(S(=O)(=O)N2CCN(C(=O)c3ccc(-c4ccccc4)cc3)CC2C(=O)NO)cc1 (stereo not drawn),ADAM17,inhibitor,,literature value,Ki,0.0006 ± 0.0003 µM
O=[N+]([O-])c1ccc(CNc2nc(NCc3cccc(C(F)(F)F)c3)nc3[nH]cnc23)cc1,inositol hexakisphosphate kinase,,,,Ki,0.24 µM
O=C(O)[C@H]1NCCN(C(=O)c2ccc3c(c2)CCc2ccccc2-3)[C@H]1C(=O)O,Grin2b with GluN1a,"ion current, antagonist","Xenopus oocytes expressing GluN1/GluN2B, rat",,Ki,0.76 ± 0.11 µM
Cc1cn([C@H]2C[C@H](O)[C@@H](CO)O2)c(=O)[nH]c1=O,Equilibrative nucleoside transporter 2,,ENT1 knockout,,Ki,42 ± 8 µM
Nc1ncnc2c1ncn2[C@@H]1O[C@H](COP(=O)(O)OP(=O)(O)O)[C@@H](O)[C@H]1O,"GLUD1 (Homo sapiens, UniProt P00367)","enzyme activity, allosteric activator",,reductive amination,EC50,12 ± 4.5 µM
MANT-XTP,"Adcy2/ADCY5, C1/C2 domains (Rattus norvegicus, UniProt P26769+P30803)","enzyme activity, inhibitor",,with: 10 mM MnCl2 and 100 µM forskolin,Ki,4.6 ± 0.51 µM
C=CCN1CCC[C@H]1CNC(=O)c1cc(CCCF)cc(OC)c1OC,dopamine D3 receptor,binding,cell line,with: [3H]spiperone,Ki,0.0003 µM
O=C(O)[C@H]1NCCN(C(=O)c2ccc(-c3ccccc3)cc2)[C@H]1C(=O)O,"Glutamate receptor ionotropic, NMDA 2A, with GluN1a subunit (Grin2a, Rattus norvegicus, UniProt Q00959)","ion current, antagonist","Xenopus oocytes expressing GluN1/GluN2A, rat",,Ki,15.7 ± 0.4 µM
NCCCNC(=O)[C@H]1O[C@@H](n2cnc3c(N)ncnc32)[C@H](O)[C@@H]1O,adenosine A1 receptor,binding,,,Ki,> 10 µM
Nc1ncnc2c1ncn2[C@@H]1O[C@H](COP(=O)(O)OP(=O)(O)O)[C@@H](O)[C@H]1O,"P2Y purinoceptor 1 (P2RY1, Homo sapiens, UniProt P47900)",,astrocytoma cells,,Ki,0.9 µM
O=c1c2nc(Br)n([C@@H]3O[C@@H]4COP(=O)(O)O[C@H]4[C@H]3O)c2nc2[nH]c(-c3ccccc3)cn12,PDE5,"cyclic nucleotide hydrolysis, substrate or inhibitor, isothermal titration calorimetry",,,Km or Ki,5.29 µM
OCC1CC(n2cnc3c(SCc4ccc(Cl)c(Cl)c4)ncnc32)C(O)C1O (stereo not drawn),adenosine kinase (Toxoplasma gondii),,,apparent Ki equals apparent Km,Ki,17 ± 4.1 µM
O=C(O)c1cc([C@H]2CCN[C@@H]2C(=O)O)ccc1Br,"Glutamate receptor ionotropic, kainate 3 (Rattus norvegicus, UniProt P42264)","binding, [3H]kainate displacement",,cloned homomeric receptor,Ki,> 100 µM
CC[C@H](C)[C@H](NC(=O)[C@@H](NC(=O)[C@H](CO)NC(=O)[C@@H](NC(=O)[C@@H]1CCCN1C(=O)[C@H](Cc1c[nH]c2ccccc12)NC(=O)[C@H](CCCNC(=N)N)NC(=O)[C@H](CO)NC(=O)[C@H](CC(N)=O)NC(=O)[C@H](C)N)[C@@H](C)O)[C@@H](C)CC)C(=O)O,"Na(+)/H(+) exchange regulatory cofactor NHE-RF2, PDZ domain 2 (Homo sapiens, UniProt Q15599)","binding, fluorescence polarization displacement",,"PDZ domain 2, with: fluorescent CFTR peptide",Ki,> 1000 µM
OC[C@H]1O[C@@H](n2cnc3c(O)ncnc32)[C@H](O)[C@@H]1O,Equilibrative nucleoside transporter 2,,ENT1 knockout,,Ki,65 ± 24 µM
COc1ccccc1CN(C(C)=O)c1cnccc1Oc1ccccc1,"Translocator protein, open form (TSPO, Homo sapiens, UniProt P30536)",,human brain tissue,"mixed-affinity binders, high-affinity site",Ki,~0.004 µM and 0.004 µM
O=[N+]([O-])c1cccc(CSc2ncnc3c2ncn3C2CC(CO)C(O)C2O)c1 (stereo not drawn),adenosine kinase (Toxoplasma gondii),,,apparent Ki equals apparent Km,Ki,27 ± 2.7 µM
O=C(NCCCCN1CCN(c2ccccc2OCCF)CC1)c1ccc(-c2ccsc2)cc1,sigma 2 receptor,,,,Ki,> 5 µM
